Results of several laboratories.
Compare with care: the assays were run in different laboratories. Values joined by “and” are separate records of one study, mostly repeats; a detail may differ. Numbers after ± are the reported error.
FFAR4: Free fatty acid receptor 4 (FFAR4, Homo sapiens, UniProt Q5NUL3)
Sequence of UniProt O76090 (whole entry, unmodified, looked up): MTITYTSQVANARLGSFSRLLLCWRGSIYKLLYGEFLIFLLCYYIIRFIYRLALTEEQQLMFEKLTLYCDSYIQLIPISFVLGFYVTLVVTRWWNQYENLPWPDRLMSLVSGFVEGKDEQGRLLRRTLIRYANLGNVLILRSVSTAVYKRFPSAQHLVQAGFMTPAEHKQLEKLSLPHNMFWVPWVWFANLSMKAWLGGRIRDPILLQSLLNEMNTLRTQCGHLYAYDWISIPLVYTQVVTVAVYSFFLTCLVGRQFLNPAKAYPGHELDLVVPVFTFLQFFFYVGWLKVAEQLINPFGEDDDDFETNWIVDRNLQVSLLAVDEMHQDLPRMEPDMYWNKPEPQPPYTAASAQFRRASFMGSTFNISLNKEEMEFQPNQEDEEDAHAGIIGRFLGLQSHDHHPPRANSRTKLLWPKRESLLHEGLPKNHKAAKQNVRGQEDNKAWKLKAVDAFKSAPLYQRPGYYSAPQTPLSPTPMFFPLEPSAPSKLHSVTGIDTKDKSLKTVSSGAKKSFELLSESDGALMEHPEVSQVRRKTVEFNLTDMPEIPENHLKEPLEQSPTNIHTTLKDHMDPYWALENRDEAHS
Sequence of UniProt Q5NUL3 (whole entry, looked up): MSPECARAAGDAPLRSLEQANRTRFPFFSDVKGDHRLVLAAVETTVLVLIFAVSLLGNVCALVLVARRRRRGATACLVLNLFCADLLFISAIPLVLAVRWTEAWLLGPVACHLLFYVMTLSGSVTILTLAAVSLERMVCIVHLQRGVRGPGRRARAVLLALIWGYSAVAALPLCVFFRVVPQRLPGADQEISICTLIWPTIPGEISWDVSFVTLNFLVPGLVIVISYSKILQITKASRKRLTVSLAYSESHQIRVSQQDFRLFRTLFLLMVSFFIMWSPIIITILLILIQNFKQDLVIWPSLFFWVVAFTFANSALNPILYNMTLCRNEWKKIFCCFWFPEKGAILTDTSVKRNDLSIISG
Sequence of UniProt Q9HC29 (whole entry, looked up): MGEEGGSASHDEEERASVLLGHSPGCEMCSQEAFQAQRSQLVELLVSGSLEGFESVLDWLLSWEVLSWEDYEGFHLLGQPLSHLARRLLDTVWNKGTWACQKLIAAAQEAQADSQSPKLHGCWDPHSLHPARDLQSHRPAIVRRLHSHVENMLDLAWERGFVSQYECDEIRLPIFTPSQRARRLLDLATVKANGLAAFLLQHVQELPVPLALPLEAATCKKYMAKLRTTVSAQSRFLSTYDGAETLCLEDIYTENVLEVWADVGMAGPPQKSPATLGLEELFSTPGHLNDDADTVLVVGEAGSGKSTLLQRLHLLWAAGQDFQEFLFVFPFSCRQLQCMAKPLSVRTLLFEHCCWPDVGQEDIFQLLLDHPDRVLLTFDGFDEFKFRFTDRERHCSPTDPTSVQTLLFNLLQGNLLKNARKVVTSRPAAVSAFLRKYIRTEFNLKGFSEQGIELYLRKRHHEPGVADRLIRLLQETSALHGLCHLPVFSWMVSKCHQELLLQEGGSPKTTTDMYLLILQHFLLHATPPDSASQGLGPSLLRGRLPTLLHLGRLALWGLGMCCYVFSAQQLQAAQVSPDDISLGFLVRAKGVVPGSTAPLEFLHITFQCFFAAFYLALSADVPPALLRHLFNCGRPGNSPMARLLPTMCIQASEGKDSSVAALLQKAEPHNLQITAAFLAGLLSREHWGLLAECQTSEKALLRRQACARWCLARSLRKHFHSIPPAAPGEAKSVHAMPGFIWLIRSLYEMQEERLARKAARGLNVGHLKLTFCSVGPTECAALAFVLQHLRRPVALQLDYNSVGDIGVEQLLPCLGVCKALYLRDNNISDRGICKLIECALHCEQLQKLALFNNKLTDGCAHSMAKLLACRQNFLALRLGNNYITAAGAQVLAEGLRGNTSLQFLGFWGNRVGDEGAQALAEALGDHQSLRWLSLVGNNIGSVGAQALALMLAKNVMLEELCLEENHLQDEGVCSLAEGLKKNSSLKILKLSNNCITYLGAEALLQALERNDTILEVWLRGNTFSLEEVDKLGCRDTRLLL
Sequence of UniProt Q96RR4 (whole entry, looked up): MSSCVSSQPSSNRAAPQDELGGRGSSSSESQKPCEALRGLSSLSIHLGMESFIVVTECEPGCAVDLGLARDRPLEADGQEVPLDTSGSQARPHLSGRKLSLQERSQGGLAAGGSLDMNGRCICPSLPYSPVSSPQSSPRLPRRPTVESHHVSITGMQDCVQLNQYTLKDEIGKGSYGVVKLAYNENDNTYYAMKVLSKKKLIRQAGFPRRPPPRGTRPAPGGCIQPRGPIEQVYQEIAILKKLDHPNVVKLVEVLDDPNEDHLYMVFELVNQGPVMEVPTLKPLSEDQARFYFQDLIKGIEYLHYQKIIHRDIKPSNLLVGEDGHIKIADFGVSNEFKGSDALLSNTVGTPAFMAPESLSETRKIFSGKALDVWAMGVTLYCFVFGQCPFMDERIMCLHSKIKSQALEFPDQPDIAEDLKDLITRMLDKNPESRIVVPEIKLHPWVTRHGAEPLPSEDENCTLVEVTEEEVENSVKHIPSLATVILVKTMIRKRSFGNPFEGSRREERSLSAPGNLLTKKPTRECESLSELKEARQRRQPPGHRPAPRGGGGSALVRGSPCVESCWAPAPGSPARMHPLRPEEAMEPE
Sequence of UniProt Q8I2X3 (whole entry, looked up): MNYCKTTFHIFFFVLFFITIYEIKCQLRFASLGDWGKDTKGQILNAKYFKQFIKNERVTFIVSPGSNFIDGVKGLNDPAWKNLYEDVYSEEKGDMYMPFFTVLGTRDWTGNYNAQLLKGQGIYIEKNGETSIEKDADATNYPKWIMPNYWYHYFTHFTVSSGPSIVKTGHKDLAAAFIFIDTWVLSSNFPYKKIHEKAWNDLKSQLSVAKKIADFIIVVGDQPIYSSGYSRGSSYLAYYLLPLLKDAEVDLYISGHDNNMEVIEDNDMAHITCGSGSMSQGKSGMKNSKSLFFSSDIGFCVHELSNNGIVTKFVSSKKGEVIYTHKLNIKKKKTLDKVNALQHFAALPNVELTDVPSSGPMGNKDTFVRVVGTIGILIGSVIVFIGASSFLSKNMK
Sequence of UniProt P61073 (whole entry, looked up): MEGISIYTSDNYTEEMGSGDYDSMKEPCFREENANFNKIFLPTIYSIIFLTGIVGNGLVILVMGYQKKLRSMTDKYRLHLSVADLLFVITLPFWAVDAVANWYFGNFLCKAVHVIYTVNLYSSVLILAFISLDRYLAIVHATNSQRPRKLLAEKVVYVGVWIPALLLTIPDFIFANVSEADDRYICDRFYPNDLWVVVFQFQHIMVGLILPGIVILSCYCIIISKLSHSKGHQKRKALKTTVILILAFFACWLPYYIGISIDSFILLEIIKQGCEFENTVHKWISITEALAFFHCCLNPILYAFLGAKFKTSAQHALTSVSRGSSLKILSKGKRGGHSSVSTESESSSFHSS

Structure (SMILES)	tested on	assay	system	setting	how to read	measurement	value
CC(=O)N[C@H]1C(O)O[C@H](CO)[C@@H](O)[C@@H]1O[C@H](C)C(=O)N[C@@H](C)C(=O)N[C@H](CCC(=O)O)C(N)=O (mixture of isomers)	Nucleotide-binding oligomerization domain-containing protein 2, LRR domain (NOD2, Homo sapiens, UniProt Q9HC29)	inhibitor, SPR competition	–	concentration not given, with: LRR domain 120 nM	reference: reference	SPR response	30.6%
CC(C)C[C@H](NC(=O)C[C@H](O)[C@H](CC(C)C)NC(=O)[C@H](Cc1c[nH]cn1)NC(=O)CNC(=O)[C@@H](NC(=O)[C@H](C)NC(=O)[C@H](Cc1c[nH]c2ccccc12)NC(=O)[C@H](CCC(N)=O)NC(=O)[C@@H](Cc1ccccc1)NC(=O)COCCOCCNC(=O)CCC(C(=O)O)N1CCN(CC(=O)O)CCN(CC(=O)O)CCN(CC(=O)O)CC1)C(C)C)C(N)=O (stereo partly drawn) [lutetium-177 labelled]	–	–	female BALB/c nu/nu mice, liver	intravenous, 100 pmol, 24 h, with: PA 300 µg	–	tissue uptake	0.05 ± 0.01 %ID/g
Nc1ncnc2c1ncn2[C@@H]1O[C@H](COP(=O)(O)OP(=O)(O)OP(=O)(O)O)[C@@H](O)[C@H]1O	rat Ca2+-activated nonselective cation channel	–	–	four-subunit kinetic model	–	mutual destabilization factor ξ	47
CC[C@@H]1[C@H](F)C(=O)N[C@@H]1COc1nccc2cc(C(N)=O)c(OC)cc12	CAMKK2 (Homo sapiens, UniProt Q96RR4)	ATP-site probe binding, ActivX profiling	THP-1 cell lysate	0.01 mM, Lys2 site	–	inhibition	5.1%
Nc1ccc(C(=O)O)cc1	BEST1, with wild-type BEST1 (Homo sapiens, UniProt O76090, L234P)	ion current, whole-cell patch clamp	HEK293 co-expressing mutant and wild-type	concentration not given, voltage -100 mV	–	current density	-15.5 pA/pF and -8.52 pA/pF and -25.4 pA/pF and -51.5 pA/pF and -14.3 pA/pF and -21.3 pA/pF
CC[C@H]1[C@@H](O)[C@@H]2[C@H](CC[C@]3(C)[C@@H]([C@H](C)CCNC(=O)NS(=O)(=O)c4ccc(C(C)(C)C)cc4)CC[C@@H]23)[C@@]2(C)CC[C@@H](O)C[C@@H]12	ABCB1 (Homo sapiens, UniProt P08183)	–	human, plasma	dose not given, mean, alone	–	half-life	10.8 h
CC1(C)CCC(c2ccc(Cl)cc2)=C(CN2CCN(c3ccc(C(=O)NS(=O)(=O)c4ccc(N[C@H](CCN5CCOCC5)CSc5ccccc5)c(S(=O)(=O)C(F)(F)F)c4)cc3)CC2)C1	C2BBe1 monolayers	drug in secreted lipoproteins	–	50 % saturated solubility, with: oleic acid/2-monoolein micelles	reference: taurocholate/phosphatidylcholine micelles	max increase of Papp	1.3 fold
CC(C)C[C@H](NC(=O)C[C@H](O)[C@H](CC(C)C)NC(=O)[C@H](Cc1c[nH]cn1)NC(=O)CNC(=O)[C@@H](NC(=O)[C@H](C)NC(=O)[C@H](Cc1c[nH]c2ccccc12)NC(=O)[C@H](CCC(N)=O)NC(=O)[C@@H](Cc1ccccc1)NC(=O)COCCOCCNC(=O)CN1CCN(CC(=O)O)CCN(CC(=O)O)CCN(CC(=O)O)CC1)C(C)C)C(N)=O [lutetium-177 labelled]	–	–	female BALB/c nu/nu mice, spleen	intravenous, 50 pmol, 24 h	–	tissue uptake	0.02 ± 0.01 %ID/g
Cn1cc(-c2ccc(-c3cncc(Cl)c3N3CCC4(CCNC4=O)CC3)cc2)cn1	COLO 205	gene expression, microarray, item: OXTR mRNA	–	concentration not given, 2 h	reference: untreated cells	log2 fold change	-2.5
O=c1cc(N2CCC(c3ccccc3)CC2)[nH]c(=O)[nH]1	FFAR4	antagonist, β-arrestin recruitment	CHO cells	10 µM	–	inhibition	-12 ± 6%
Cc1ccc(C(=O)NCc2ccc(CNS(=O)(=O)c3ccc(C)cc3)cc2)cc1	CXCR4 (Homo sapiens, UniProt P61073)	binding, inhibitor, competitive binding	MDA-MB-231	with: biotinylated TN14003	–	EC	1000 nM
COc1ccc(CCNc2cc(=O)[nH]c(=O)[nH]2)cc1	FFAR4	antagonist, β-arrestin recruitment	CHO cells	10 µM, with: 4 µM TUG-891	–	inhibition	14 ± 5%
Cc1n[nH]c(CC(=O)N2Cc3c(-c4ccc(C(=O)N5CCCc6ccccc65)cc4)cnn3C[C@H]2C)n1	PRKN (Human, UniProt O60260)	nanoDSF	–	200 µM	reference: DMSO	ΔTm	-1.3 °C
O=c1cc(NCCc2ccc(Cl)cc2)[nH]c(=O)[nH]1	FFAR4	antagonist, β-arrestin recruitment	CHO cells	10 µM	–	inhibition	10 ± 4%
c1cncc(NCc2ccc(-c3cc4ccncc4cc3OC3CCNCC3)s2)c1	Glideosome-associated protein 50 (GAP50, Plasmodium falciparum, UniProt Q8I2X3)	binding, surface plasmon resonance	–	1:1 binding model	–	koff	0.397 s⁻¹

Repeated from above:
Structure (SMILES)	tested on	assay	system	setting	how to read	measurement	value
Cn1cc(-c2ccc(-c3cncc(Cl)c3N3CCC4(CCNC4=O)CC3)cc2)cn1	COLO 205	gene expression, microarray, item: OXTR mRNA	–	concentration not given, 2 h	reference: untreated cells	log2 fold change	-2.5
O=c1cc(N2CCC(c3ccccc3)CC2)[nH]c(=O)[nH]1	FFAR4	antagonist, β-arrestin recruitment	CHO cells	10 µM	–	inhibition	-12 ± 6%
